Published values from different studies.
Several values in a cell are separate wells, animals, samples, runs or records. ± gives the spread as reported.

| Compound | tested on | assay | system | conditions | how to read | measurement | value |
| --- | --- | --- | --- | --- | --- | --- | --- |
| COc1ccc(CNc2ccc3c(c2)S(=O)(=O)C=C3)cc1 |  |  | male C57BL/6 mice, blood | intraperitoneal, 5 mg/kg, day 8, group average |  | mean corpuscular haemoglobin | 15.1 pg |
| C[C@H](O)[C@@H](NC(=O)[C@H]1CCCN1C(=O)[C@@H](CCCCN)NC(=O)[C@@H](CO)NC(=O)[C@@H](Cc1ccc(O)cc1)NC(=O)[C@@H](CC(N)=O)NC(=O)CCOCCOCCOCCNC(=O)CN1CCN(CC(=O)O)CCN(CC(=O)O)CCN(CC(=O)O)CC1)C(=O)N[C@H](CC(=O)O)C(=O)N[C@H](CCCNC(=N)N)C(=O)N[C@H](CCC(N)=O)C(=O)N[C@H](Cc1ccc(O)cc1)C(=O)N[C@H](Cc1c[nH]cn1)C(=O)N[C@H](Cc1ccccc1)C(N)=O [copper-64 labelled] |  |  | C57BL/6J mice, spleen | intravenous, 1.85 MBq, 1 h, radiolabelled |  | tissue uptake | 0.17 ± 0.01 %ID/g |
| CC[C@H](C)[C@H](NC(=O)[C@H](CCCNC(=N)N)NC(=O)[C@H](CCCCN)NC(=O)[C@H](Cc1ccc(O)cc1)NC(=O)[C@H](CC(=O)O)NC(=O)[C@H](C)NC(=O)CNC(=O)CCOCCOCCOCCNC(=O)CN1CCN(CC(=O)O)CCN(CC(=O)O)CCN(CC(=O)O)CC1)C(=O)N[C@H](C(=O)N[C@H](C(=O)N[C@@H](CCCCN)C(=O)N[C@H](C(=O)N[C@@H](CC(N)=O)C(N)=O)C(C)C)C(C)C)[C@@H](C)O [copper-64 labelled] |  | ex vivo gamma counting | C57BL/6J male mice, B16-F10 tumour, blood | intravenous, 1.85 MBq, 40 min |  | tissue uptake | 1.53 ± 0.081 %ID/g |
| Cc1n[nH]c(C)c1CCCOc1cc(OCCCCCCNCCOCCOCCn2cc(CNc3ccc(C(=O)O)cc3)nn2)cc(C(=O)O)c1 |  |  | male Sprague Dawley rat, CSF and plasma | subcutaneous, 15 µmol/kg, 10 min |  | CSF to plasma ratio | 1.4 and 1.6 |
| Cc1ccc(N(C)C2CN(C)C2)cc1C(=O)N[C@H](C)c1cc(-c2cnn(C)c2)nc2ccccc12 | Vero E6 |  |  | 500 µM |  | viability | 1.24% and 1.09% |
| CSCC[C@H](NC(=O)[C@@H](NC(=O)[C@H](CC(C)C)NC(=O)[C@@H](NC(=O)[C@H](Cc1c[nH]cn1)NC(=O)CCCCCNC(=O)[C@H](CCCNC(=N)N)NC(=O)[C@H](CCCNC(=N)N)NC(=O)[C@H](CCCNC(=N)N)NC(=O)[C@H](CCC(N)=O)NC(=O)[C@H](CCCNC(=N)N)NC(=O)[C@H](CCCNC(=N)N)NC(=O)[C@H](CCCCN)NC(=O)[C@H](CCCCN)NC(=O)[C@H](CCCNC(=N)N)NC(=O)CNC(=O)[C@@H](N)Cc1ccc(O)cc1)C(C)C)C(C)C)C(=O)N[C@@H](CS)C(=O)N[C@@H](C)C(=O)N[C@H](C(N)=O)[C@@H](C)O |  |  | C57BL/6J mice | Alzet osmotic pump, 3 mg/kg, 8 weeks |  | serum Potassium | 4.9 g/dL and 4.8 g/dL and 4.4 g/dL |
| Cc1ccc(N2C[C@@H]3C[C@H]2CN3C)cc1C(=O)N[C@H](C)c1cc(-c2cnn(C)c2)nc2ccccc12 | African green monkey cells |  |  | 31.25 µM |  | viability | 107% |
| CC[C@H](C)[C@H](NC(=O)[C@H](CCCCN)NC(=O)CNC(=O)[C@H](CC(C)C)NC(=O)[C@H](Cc1ccccc1)NC(=O)[C@H](CCCCN)NC(=O)[C@H](CO)NC(=O)[C@H](Cc1ccccc1)NC(=O)[C@H](Cc1c[nH]c2ccccc12)NC(=O)[C@H](CCC(N)=O)NC(=O)[C@@H](NC(=O)[C@H](Cc1ccccc1)NC(=O)CCCCCNC(=O)CN1CCN(CC(=O)O)CCN(CC(=O)O)CCN(CC(=O)O)CC1)C(C)C)C(=O)N[C@@H](CCC(=O)O)C(=O)N1CCC[C@H]1C(=O)N[C@@H](CC(=O)O)C(=O)N[C@H](C(=O)N[C@@H](CO)C(=O)N[C@@H](CCC(N)=O)C(=O)N[C@H](C(=O)N[C@@H](CCC(N)=O)C(=O)N[C@@H](CC(=O)O)C(=O)N1CCC[C@H]1C(=O)N[C@@H](CC(N)=O)C(=O)N[C@@H](CC(=O)O)C(=O)N[C@@H](CCC(N)=O)C(=O)N[C@@H](Cc1ccc(O)cc1)C(=O)N[C@@H](CCC(=O)O)C(=O)N1CCC[C@H]1C(=O)N[C@@H](Cc1ccccc1)C(=O)O)C(C)C)C(C)C [copper-64 labelled] |  |  | C57BL/6 mice, heart | vehicle, intratracheal instillation |  | tissue uptake | 1.09 ± 0.1 %ID/g |
| O=C1NC2(CC2)COc2ncc(F)cc2[C@H]2COCCN2c2ccn3ncc1c3n2 |  |  | Sprague-Dawley rat, male, heart | oral, 20 mg/kg/day, 4 weeks, end of treatment |  | organ-to-brain weight ratio | 87.9 ± 18.4% |
| CSCC[C@H](N)C(=O)N[C@@H](C)C(=O)N[C@@H](Cc1c[nH]c2ccccc12)C(=O)N[C@@H](Cc1c[nH]cn1)C(=O)N[C@@H](CC(=O)O)C(=O)N[C@@H](CC(=O)O)C(=O)N[C@@H](CCC(=O)O)C(=O)N[C@@H](CCC(=O)O)C(=O)N[C@@H](Cc1ccccc1)C(=O)N[C@@H](C)C(=O)N[C@@H](CCCNC(=N)N)C(=O)N[C@@H](CCCNC(=N)N)C(=O)N[C@@H](CCCNC(=N)N)C(=O)N[C@@H](CCCNC(=N)N)C(=O)NCCCCCC(=O)NCCCCC(NC(=O)CCCCCNC(=O)[C@H](CCCNC(=N)N)NC(=O)[C@H](CCCNC(=N)N)NC(=O)[C@H](CCCNC(=N)N)NC(=O)[C@H](CCCNC(=N)N)NC(=O)[C@H](C)NC(=O)[C@H](Cc1ccccc1)NC(=O)[C@H](CCC(=O)O)NC(=O)[C@H](CCC(=O)O)NC(=O)[C@H](CC(=O)O)NC(=O)[C@H](CC(=O)O)NC(=O)[C@H](Cc1c[nH]cn1)NC(=O)[C@H](Cc1c[nH]c2ccccc12)NC(=O)[C@H](C)NC(=O)[C@@H](N)CCSC)C(=O)NCCCCC(NC(=O)C(CCCCNC(=O)CCCCCNC(=O)[C@H](CCCNC(=N)N)NC(=O)[C@H](CCCNC(=N)N)NC(=O)[C@H](CCCNC(=N)N)NC(=O)[C@H](CCCNC(=N)N)NC(=O)[C@H](C)NC(=O)[C@H](Cc1ccccc1)NC(=O)[C@H](CCC(=O)O)NC(=O)[C@H](CCC(=O)O)NC(=O)[C@H](CC(=O)O)NC(=O)[C@H](CC(=O)O)NC(=O)[C@H](Cc1c[nH]cn1)NC(=O)[C@H](Cc1c[nH]c2ccccc12)NC(=O)[C@H](C)NC(=O)[C@@H](N)CCSC)NC(=O)CCCCCNC(=O)[C@H](CCCNC(=N)N)NC(=O)[C@H](CCCNC(=N)N)NC(=O)[C@H](CCCNC(=N)N)NC(=O)[C@H](CCCNC(=N)N)NC(=O)[C@H](C)NC(=O)[C@H](Cc1ccccc1)NC(=O)[C@H](CCC(=O)O)NC(=O)[C@H](CCC(=O)O)NC(=O)[C@H](CC(=O)O)NC(=O)[C@H](CC(=O)O)NC(=O)[C@H](Cc1c[nH]cn1)NC(=O)[C@H](Cc1c[nH]c2ccccc12)NC(=O)[C@H](C)NC(=O)[C@@H](N)CCSC)C(N)=O (some centres unmarked) |  |  | C57BL/6 mouse female, thymus | dose not given, 3 h | relative to: total | tissue distribution | 0.81% and 0.98% and 0.8% |
| N#[11C]c1ccc(-c2csc(NN=C3CCCC3)n2)cc1 |  |  | C57BL/6 mice, male, bladder | intravenous, 3 MBq, 60 min |  | radioactivity uptake | 3.84 ± 0.6 %ID/g |
| CCCC[C@H]1C(=O)N(C)[C@@H](CCCC)C(=O)N[C@@H](CCCNC(=O)CN2CCN(CC(=O)O)CCN(CC(=O)O)CCN(CC(=O)O)CC2)C(=O)N[C@H](C(=O)NCC(N)=O)CSCC(=O)N[C@@H](Cc2ccc(O)cc2)C(=O)N(C)[C@@H](C)C(=O)N[C@@H](CC(N)=O)C(=O)N2CCC[C@H]2C(=O)N[C@@H](Cc2c[nH]cn2)C(=O)N[C@@H](CC(C)C)C(=O)N(C)CC(=O)N[C@@H](Cc2c[nH]c3ccccc23)C(=O)N[C@@H](CO)C(=O)N[C@@H](Cc2c[nH]c3ccccc23)C(=O)N1C [gallium-68 labelled] |  |  | NOD/SCID mice, CHO-hPD-L1 xenograft, intestine | 60 min, PBS pretreatment |  | tissue uptake | 2.08 ± 0.36 %ID/g |
| CN[C@H](CC(C)C)C(=O)N[C@H]1C(=O)N[C@@H](CC(N)=O)C(=O)N[C@H]2C(=O)N[C@H]3C(=O)N[C@H](C(=O)N[C@H](C(=O)O)c4cc(O)cc(O)c4-c4cc3ccc4O)[C@H](O)c3ccc(c(Cl)c3)Oc3cc2cc(c3O[C@@H]2O[C@H](CO)[C@@H](O)[C@H](O)[C@H]2O[C@H]2C[C@](C)(NCc3ccc(-c4ccc(Cl)cc4)cc3)[C@H](O)[C@H](C)O2)Oc2ccc(cc2Cl)[C@H]1O |  |  | mouse, plasma | intravenous, 75 mg/kg |  | Tmax | 15 min |
| CCN(Cc1ccccc1)C(=O)CCc1nc(CN2CCN(C(=O)Cc3ccc(OC)c(OC)c3)CC2)no1 |  | rotarod test | mouse, CCI neuropathic pain model | 20 mg/kg |  | time to first slip | 1 ± 0.09 min |

A few entries again:
| Compound | tested on | assay | system | conditions | how to read | measurement | value |
| --- | --- | --- | --- | --- | --- | --- | --- |
| O=C1NC2(CC2)COc2ncc(F)cc2[C@H]2COCCN2c2ccn3ncc1c3n2 |  |  | Sprague-Dawley rat, male, heart | oral, 20 mg/kg/day, 4 weeks, end of treatment |  | organ-to-brain weight ratio | 87.9 ± 18.4% |
